Assay results pooled from the literature.
Each numbered part is a random draw from the data of one study; scales do not carry over between parts. Positions count from the first letter of the parent shown.

Study 1
Target: RNA binding protein fox-1 homolog 2, RRM domain, GST-SBP tag (RBFOX2, Homo sapiens, UniProt O43251-10, residues 100-194)
Method: RNA Bind-n-Seq
Form: RNA
Medium: in vitro
Concentration: 365 nM
Setting: natural RNA segment, single round, ends assumed
Relative to: no-protein control
Reading: higher = stronger binding
Residues (chain): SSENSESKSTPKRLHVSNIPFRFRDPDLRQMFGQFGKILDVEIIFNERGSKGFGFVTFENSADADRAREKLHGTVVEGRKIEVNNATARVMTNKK
`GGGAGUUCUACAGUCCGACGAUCUAGAGAGACUGUACUUUUUUUCUAGAAAAAAAUAUUGUGAAACAGUUUUCUGUAGUGAUAUUGUUGAAUAUGACAGGUAAAGCAACUGUGAGGGCAAACUAGAAUUAGUAUGGAAUUCUCGGGUGCCAA` — result for “RBNS enrichment (R)”: 1.3.
For `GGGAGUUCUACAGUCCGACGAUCUCGGAGCGGAGCAGGGUAGGGACCGUGUACAGCUUGAUAACCCUUAAUAAAAAGGGAGUUUGACCAGCUUCUUGUUGUCUCGCGCGGCUAGAAUCCUGGGAACAAGAGAAUGGAAUUCUCGGGUGCCAA`, “RBNS enrichment (R)” read 1.26.
`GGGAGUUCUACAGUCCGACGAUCGGUGAGGCCAGCUCACAGAGUGACAUCAUGGUCACCAGUACAUGUCGCUGGAGUAAAAUCUUGCCUUUAGAAACUAGGUUGAGCUGUUCAGAAAGGUCAAUUCUCUUCUGUGGAAUUCUCGGGUGCCAA`: “RBNS enrichment (R)” 0.26.
`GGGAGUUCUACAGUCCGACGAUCUUUCUGUGACUGUCUUAGGUGACGUGUAGCCCUCUUCCGUUUUUUCACCCAACAACUUCCUCUGUCCUGCUGCACGGUCCAGAGUCUGGGACCGACUUUGUUUCUUUGUUUGGAAUUCUCGGGUGCCAA`: “RBNS enrichment (R)” 0.759.
`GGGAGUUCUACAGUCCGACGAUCAAGCUGUUUAAGAAGGCCAUGACUCUUUAGGUGUGUAUGUGUACCUUUCAGCAUCCUAGGAAUUUUUAUACUAAAAGCAAAAUGUUUUUUCCAGUUAGUCUUCUUCAAGGUGGAAUUCUCGGGUGCCAA`: “RBNS enrichment (R)” 0.623.
For `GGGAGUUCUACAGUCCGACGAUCACAGUAGACCAGUUGCUCUUUGCUUCAGGUCCCUUUGAUGGAGUCUGUCAUCAGCCAGUGCUAACACCGGGCCAAUAAGAAUAUAACACCAAAUAACUGCUGGCUAGUUGUGGAAUUCUCGGGUGCCAA`, “RBNS enrichment (R)” read 0.214.
`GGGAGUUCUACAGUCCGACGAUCAAAGAGGUCAACAGCACGGGCAGGGAGCCAAGGGGCUGGGUGCUCAGACUCUUAACAAUAUCCCAAGGUGGCCCCUUUCCUCCGAGCAUUCCCAUGGCACUUCACCAGCCUGGAAUUCUCGGGUGCCAA` — result for “RBNS enrichment (R)”: 0.578.
`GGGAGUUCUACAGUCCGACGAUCGAGUGACCAGGUCAGUGGCCCUGCCCGUGAAGGCUGGCGAUUAACUGUGGCAGCAGACAUGUCCUGUCCUCAUCUUGGACAGGCCUCCCUUCCCCGUUGGCGUGCUUGGUUGGAAUUCUCGGGUGCCAA` — result for “RBNS enrichment (R)”: 1.02.

Study 2
Target: CCNA1, cyclin fold, Cln2 fusion (human)
Method: yeast growth competition, sequencing
Medium: yeast
Setting: weak parent motif
Relative to: not given
Reading: higher = stronger binding
Starting sequence: ORC1 docking peptide (human); PRARKRLELGNLG; partner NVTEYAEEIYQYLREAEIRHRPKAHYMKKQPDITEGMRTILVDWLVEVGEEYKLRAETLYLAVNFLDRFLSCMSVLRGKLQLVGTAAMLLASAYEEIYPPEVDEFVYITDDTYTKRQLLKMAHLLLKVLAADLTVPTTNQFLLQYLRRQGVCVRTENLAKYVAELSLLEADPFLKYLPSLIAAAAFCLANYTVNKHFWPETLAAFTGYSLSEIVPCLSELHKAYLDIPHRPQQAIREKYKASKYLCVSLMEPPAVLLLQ
For `PRARKRLELKNLG [G10K]`, “normalised enrichment score” read 0.315.
Under “normalised enrichment score”, `PRARKRPELGNLG [L7P]` is recorded as -0.0643.
`PRADKRLELGNLG [R4D]`: “normalised enrichment score” 0.158.
Under “normalised enrichment score”, `PRARKRLCLGNLG [E8C]` is recorded as -0.0233.
Under “normalised enrichment score”, `PHARKRLELGNLG [R2H]` is recorded as 0.595.
For `HRARKRLELGNLG [P1H]`, “normalised enrichment score” read 0.241.
`PEARKRLELGNLG [R2E]` — result for “normalised enrichment score”: 0.532.
Under “normalised enrichment score”, `PRARKRNELGNLG [L7N]` is recorded as -0.0812.
`PRARKRLEMGNLG [L9M]` — result for “normalised enrichment score”: 0.609.
`PLARKRLELGNLG [R2L]`: “normalised enrichment score” 0.107.

Study 3
Target: RING finger protein unkempt homolog, zinc fingers 1-6, GST-SBP tag (UNK, Homo sapiens, UniProt Q9C0B0, residues 30-357)
Method: RNA Bind-n-Seq
Form: RNA
Medium: in vitro
Concentration: not given
Setting: RNA with constant flanks, ends assumed
Relative to: input RNA pool
Reading: higher = stronger binding
Target sequence (chain): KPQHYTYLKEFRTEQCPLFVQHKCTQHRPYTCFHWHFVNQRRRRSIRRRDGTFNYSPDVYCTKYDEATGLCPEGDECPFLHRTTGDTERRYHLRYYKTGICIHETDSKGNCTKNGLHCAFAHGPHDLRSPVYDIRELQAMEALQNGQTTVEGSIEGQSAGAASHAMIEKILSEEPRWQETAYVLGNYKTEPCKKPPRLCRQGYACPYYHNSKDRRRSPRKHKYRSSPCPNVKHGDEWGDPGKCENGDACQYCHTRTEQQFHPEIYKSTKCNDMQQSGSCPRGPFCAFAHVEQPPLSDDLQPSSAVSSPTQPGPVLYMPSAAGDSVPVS
With `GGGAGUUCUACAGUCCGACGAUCGAAGAUGGUGGUUGUACAUUAUUCAUCUAGAAAAUAUAAAAAUUCAUUUUGUUUUGAAGCCCGUUAUUAAACUGGAAUAGCAGUUAUAUCCCUGAGAAUGGGGCCCUUCUCUUGACAUUCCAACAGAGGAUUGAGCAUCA` the bound/input enrichment was 6.56 ratio.
The bound/input enrichment of `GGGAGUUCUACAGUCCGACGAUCUUAAUGUCUGCCAGAACACAAUUUAUAUGCCUUAUUGGCUUCAUUAAACUUUUAGAAAACUUCCGCAUUUGUUACUUUUUUCCAUUGCGUUUACUUUCAAAUGCACCUAAUGAAUUUGUCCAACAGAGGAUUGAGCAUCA` is reported as 1.08 ratio.
For `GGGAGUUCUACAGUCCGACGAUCUCCGCUCGGAAAAUGCGCCUGGGAGAUGCUGUUGAACAGGGUGUGAUUAAUAACACAGUAUCCGGCUAUUUCAUUGGCCGCAUCUACCUCUACCUCACGAAGGUUGGAAUAUCUCCAGAUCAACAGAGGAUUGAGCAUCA`, the bound/input enrichment was 0.0977 ratio.
For `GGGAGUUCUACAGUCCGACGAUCAACAACAAAAAACCCCAAGGAACCUAAUAACCUUUUUGAAAAACAAAAUAAUGAGAAUUUUCCGUGAUAUAUUUCUUAUUUGACAGAAUAAGGUGUCUGGAGGGGGUCCUGUACUCAUCCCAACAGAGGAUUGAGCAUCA`, the bound/input enrichment was 0.362 ratio.
`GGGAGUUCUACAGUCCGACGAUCGUACUAAAAAAGAGAGUAACUCGGGAGUGUUGAGGCUUUGCGUGAAUGUCUGAGACCGGGCCUGGCUCCACCCCAGGAAGGGAGGCCAACGUCACUAACACUGUAUGUGCAAAUGUCCGCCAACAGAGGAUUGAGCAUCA` gave a bound/input enrichment of 0.146 ratio.
The bound/input enrichment of `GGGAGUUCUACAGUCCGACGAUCCUCUGUAAACAGUUUGGUUCUUAGUCCUUCUCUUGUACAAAUGAUGUACUUUGAAGACCGUCCGUGUAUAACAGAGUUGUUUGUUUCCUCUUUGAUUUUAAACAGAGAAAAUAAAAGGAGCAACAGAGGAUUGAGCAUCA` is reported as 0.275 ratio.
For `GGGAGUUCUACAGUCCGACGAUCUAUACUGGCAUUGAUCAUCACUGGAAAGACCCAGUCUUUGCCACUUGUGGACAGCAAGCCGACAUUUGGGAUGAACAAAGAACCAGCCCUGUGUGCUCAAUGAACUGGGGAUUUGACAGCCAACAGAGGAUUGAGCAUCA`, the bound/input enrichment was 0.135 ratio.

Other studies, line by line
`PhoQ, residues 284 288 289 292 302 303 TNSAEL` gave a fold induction of 16.9 (PhoP, residues 12 14 15 18 19 SQCLL (Escherichia coli, UniProt P23836); Sort-seq, refers to: YFP reporter; E. coli; PhoQ-PhoP variant library, added: 10 µM Mg2+; relative to: high Mg2+ state, higher = stronger signaling).

For quick reference, copied from above (study 2):
`PRADKRLELGNLG [R4D]`: “normalised enrichment score” 0.158.
`PRARKRLEMGNLG [L9M]` — result for “normalised enrichment score”: 0.609.
Under “normalised enrichment score”, `PRARKRPELGNLG [L7P]` is recorded as -0.0643.
`PEARKRLELGNLG [R2E]` — result for “normalised enrichment score”: 0.532.
